Results of several laboratories.
Each line is one published result; not all experiments were run side by side. Numbers after ± are the reported error.
Cell line: SH-SY5Y

The LDH release of `CCCC[C@H]1C(=O)N[C@@H]([C@@H](C)O)C(=O)N[C@@H](C(C)C)C(=O)N[C@@H](CCCCN)C(=O)NCCC[C@H](N)C(=O)N[C@@H](Cc2ccc(O)cc2)C(=O)N[C@@H](CC(C)C)C(=O)N[C@@H](CC(C)C)C(=O)N[C@@H](Cc2ccc(I)cc2)C(=O)N[C@@H](Cc2ccc(O)cc2)C(=O)N[C@@H]([C@@H](C)O)C(=O)N[C@@H](CCC(=O)O)C(=O)NCCC[C@H](N)C(=O)N[C@@H](CCCCN)C(=O)N[C@@H](C(C)C)C(=O)N[C@@H]([C@@H](C)O)C(=O)N1C` is reported as 36 ± 4% (cytotoxicity; 25 µM).
`O=C(O)CCCOc1ccc(F)cc1-c1cc(-c2ccccc2C(F)(F)F)n(-c2ccccc2)n1` — result for “BAX mitochondrial translocation”: “decreased” (0.3 µM, together with: rotenone 1 µM).
With `Cc1c(C)c(C)[c-](C)c1C.O=C1c2cccc[n+]2[Ir]([Cl])[N]1CCCCCCCCCC[P+](c1ccccc1)(c1ccccc1)c1ccccc1.[Br-]` the NAD+ level was 55% (concentration not given, together with: MPP+).
`CCCCC1OC(=O)C2=CCCCC21` (centres unmarked) has an EC50 of 0.962 µM (neuroprotection, CCK-8; together with: 6-OHDA 200 µmol/L).
`Cc1cc(NC(=O)c2cccc(-n3cc(NC(=O)Nc4ccc(Cl)cc4)cn3)c2)ccn1` has an IC50 of 0.046 ± 0.029 µM (mitochondrial depolarization; pretreatment 1 h, together with: 35 µM 6-OHDA, 4 h).
`CCCC(=O)Oc1c(C)c(OC)c2c(/C=C/c3ccccc3)c(CC)c(=O)oc2c1C` has an IC50 of over 50 µM (cell growth or viability, SRB; 72 h).
`CC(C)C[C@@H]1NC(=O)[C@H](CC(C)C)NC(=O)[C@H](Cc2ccc(O)cc2)NC(=O)[C@@H](N)CCCNC(=O)[C@H](CCCCN)NC(=O)[C@H](C(C)C)NC(=O)[C@H](C)NC(=O)[C@H](C)N(C)C(=O)[C@H](C)NC(=O)[C@H](C(C)C)NC(=O)[C@H](CCCCN)NC(=O)[C@@H](N)CCCNC(=O)[C@H](CCC(=O)O)NC(=O)[C@H]([C@@H](C)O)NC(=O)[C@H](Cc2ccc(O)cc2)NC(=O)[C@H](Cc2ccc(I)cc2)NC1=O` has an LDH release of 37 ± 4% (cytotoxicity; 25 µM).
Under “viability fold enhancement”, `CCCCCCCCCC[N]1C(=O)c2cccc[n+]2[Ir]1[Cl].Cc1c(C)c(C)[c-](C)c1C` is recorded as 1.7 fold (SRB; 5 µM, 3 h, together with: aldehyde Ia 20 µM, 24 h; reference: aldehyde Ia alone).
For `CC(C)C[C@@H]1NC(=O)[C@H](CC(C)C)NC(=O)[C@H](Cc2ccc(O)cc2)NC(=O)[C@@H](N)CCCNC(=O)[C@H](CCCCN)NC(=O)[C@H](C(C)C)NC(=O)[C@H](C)NC(=O)[C@H](C(C)C)N(C)C(=O)[C@H](C)NC(=O)[C@H](C(C)C)NC(=O)[C@H](CCCCN)NC(=O)[C@@H](N)CCCNC(=O)[C@H](CCC(=O)O)NC(=O)[C@H]([C@@H](C)O)NC(=O)[C@H](Cc2ccc(O)cc2)NC(=O)[C@H](Cc2ccc(I)cc2)NC1=O`, the LDH release was 22 ± 5% (cytotoxicity; 25 µM).
Under “viability fold enhancement”, `Cc1c(C)c(C)[c-](C)c1C.O=C1c2cccc[n+]2[Ir]([Cl])[N]1CCCCCCCCCC[P+](c1ccccc1)(c1ccccc1)c1ccc2ccc3cccc4ccc1c2c34.[Br-]` is recorded as 1.8 fold (SRB; 5 µM, 3 h, together with: aldehyde Ia 20 µM, 24 h; reference: aldehyde Ia alone).
`Cc1cc(NC(=O)c2cccc(-n3cc(NC(=O)Nc4ccccc4)cn3)c2)ccn1` has an IC50 of 6.64 ± 1.16 µM (in-cell Western, measured: phospho-c-Jun; pretreatment 1 h, together with: 35 µM 6-OHDA).
The IC50 of `CCn1cc(/C=C/c2sc3ccccc3[n+]2CC)c2ccccc21` is reported as 2.2 µM (cell growth or viability, MTT; 24 h).
`Cc1cc(NC(=O)c2cccc(-n3cc(NC(=O)Nc4ccccc4Cl)cn3)c2)ccn1` has an IC50 of 0.866 ± 0.204 µM (in-cell Western, measured: phospho-c-Jun; pretreatment 1 h, together with: 35 µM 6-OHDA).
`N#Cc1ccc2[nH]c(O)c(-c3ccc(CN4CCOCC4)cn3)c2c1` has an EC50 of 3.27 µM (β-catenin nuclear translocation; 6 h).
`COc1ccc(NC(=O)COc2ccc(/C=C/C(C)=N/O)cc2OC)cc1`: “IL-6 expressing cells” 6.52% (flow cytometry; 40 µM, together with: amyloid beta 10 µM).
`Cc1c(C)c(C)[c-](C)c1C.O=C(CCC[N-]C(=O)c1ccccn1)NCc1ccc2ccc3cccc4ccc1c2c34.[Cl-].[Ir+3]` has an IC50 of 32 µM (cell growth or viability, SRB; 24 h).
`CC(C)C[C@@H]1NC(=O)[C@H](CC(C)C)NC(=O)[C@H](Cc2ccc(O)cc2)NC(=O)[C@@H](N)CCCNC(=O)[C@H](CCCCN)NC(=O)[C@H](C(C)C)NC(=O)[C@H](C)NC(=O)[C@H](CC(C)C)N(C)C(=O)[C@H](C)NC(=O)[C@H](C(C)C)NC(=O)[C@H](CCCCN)NC(=O)[C@@H](N)CCCNC(=O)[C@H](CCC(=O)O)NC(=O)[C@H]([C@@H](C)O)NC(=O)[C@H](Cc2ccc(O)cc2)NC(=O)[C@H](Cc2ccc(I)cc2)NC1=O` gave an LDH release of 45 ± 6% (cytotoxicity; 25 µM).
`CC[C@@]1(c2cccc(C(F)(F)F)c2)C2=C(Nc3n[nH]cc31)[C@H](F)C(C)(C)CC2=O` (single isomer, unassigned) has an EC50 of 3.02 µM (β-catenin nuclear translocation; 6 h).
`CCCC[C@H]1C(=O)N[C@@H](C)C(=O)N[C@@H](C(C)C)C(=O)N[C@@H](CCCCN)C(=O)NCCC[C@H](N)C(=O)N[C@@H](Cc2ccc(O)cc2)C(=O)N[C@@H](CC(C)C)C(=O)N[C@@H](CC(C)C)C(=O)N[C@@H](Cc2ccc(I)cc2)C(=O)N[C@@H](Cc2ccc(O)cc2)C(=O)N[C@@H]([C@@H](C)O)C(=O)N[C@@H](CCC(=O)O)C(=O)NCCC[C@H](N)C(=O)N[C@@H](CCCCN)C(=O)N[C@@H](C(C)C)C(=O)N[C@@H](C)C(=O)N1C` gave an LDH release of 44 ± 7% (cytotoxicity; 25 µM).
For `Cc1cc(NC(=O)c2cccc(-n3cc(NC(=O)Nc4ccc(F)cc4)cn3)c2)ccn1`, the IC50 was over 10 µM (in-cell Western, measured: phospho-c-Jun; pretreatment 1 h, together with: 35 µM 6-OHDA).

For quick reference, copied from above:
`CCCCC1OC(=O)C2=CCCCC21` (centres unmarked) has an EC50 of 0.962 µM (neuroprotection, CCK-8; together with: 6-OHDA 200 µmol/L).
